Experimental data pooled from the literature.
Each numbered part is a random draw from the data of one study; scales do not carry over between parts. Positions count from the first letter of the parent shown.
UniProt Q9C0B0, sequence (30-357, looked up): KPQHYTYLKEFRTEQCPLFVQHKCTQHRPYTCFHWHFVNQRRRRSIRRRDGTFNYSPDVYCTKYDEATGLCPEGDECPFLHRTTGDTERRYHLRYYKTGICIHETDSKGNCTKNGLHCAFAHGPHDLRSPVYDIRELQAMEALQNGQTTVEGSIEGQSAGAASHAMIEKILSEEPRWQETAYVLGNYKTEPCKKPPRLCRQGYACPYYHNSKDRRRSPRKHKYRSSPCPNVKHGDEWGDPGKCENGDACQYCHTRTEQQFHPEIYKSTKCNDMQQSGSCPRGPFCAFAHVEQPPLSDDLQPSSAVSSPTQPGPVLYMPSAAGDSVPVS

Study 1 — technique: protein-binding microarray; molecule type: double-stranded DNA, one strand shown; sample: in vitro; tested at: 2540 nM top; notes: 60-bp whole probe; with: salmon DNA 0.4 mg/ml; baseline: random background probes; reading: higher = stronger binding; constant ends, left off below: GCCTAGCAC … GTCTTGATTCGCTTGACGCTGCTG
Target: Interferon regulatory factor 3, full length, phosphomimetic (IRF3, Homo sapiens, UniProt Q14653, residues 1-427, S386D/S396D/S398D/S402D/T404D/S405D)
UniProt Q14653, sequence (whole entry, unmodified, looked up): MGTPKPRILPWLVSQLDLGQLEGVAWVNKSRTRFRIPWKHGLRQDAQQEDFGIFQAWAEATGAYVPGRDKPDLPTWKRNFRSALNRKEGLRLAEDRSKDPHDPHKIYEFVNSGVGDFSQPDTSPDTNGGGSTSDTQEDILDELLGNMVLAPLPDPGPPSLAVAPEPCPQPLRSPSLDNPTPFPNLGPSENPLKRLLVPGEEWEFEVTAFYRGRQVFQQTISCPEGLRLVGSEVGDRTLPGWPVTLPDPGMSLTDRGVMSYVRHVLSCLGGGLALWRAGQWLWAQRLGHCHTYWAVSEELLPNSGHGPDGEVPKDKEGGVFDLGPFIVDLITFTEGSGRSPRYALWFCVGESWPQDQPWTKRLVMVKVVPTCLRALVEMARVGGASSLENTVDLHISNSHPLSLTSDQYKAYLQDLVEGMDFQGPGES
| Sequence | fitted relative affinity |
| --- | --- |
| TTAGAACTGGGGACTGGATTTGTGCTA | -0.855 z-score |
| TTAGTTTTCCTTTTCCTTTAGTGCTAG | 9.59 z-score |
| GACGGTATCGACACTTGGGACGTGCTA | 0.471 z-score |
| GACGAACTGAGTCTCGCGACGTGCTAG | -0.363 z-score |
| GACGGACTGCTTATCCTGACGTGCTAG | -0.362 z-score |
| GACGGACTGGGGCTTCGGGACGTGCTA | -1.15 z-score |
| GCCCCTTTCCTTTGCCTCTGGTGCTAG | 3.73 z-score |
| ACTAATTTTCATTTTCCAAAGTGCTAG | 4.61 z-score |
| TCAACTCTCTGCTTGTGACTGTGCTAG | 0.0926 z-score |
| CTTCCTCTTTCACTGGTCCTGTGCTAG | 2.54 z-score |

Study 2 — target: CCNF, cyclin fold, Cln2 fusion (human); technique: yeast growth competition, sequencing; sample: yeast; notes: weak parent motif; baseline: not given; reading: higher = stronger binding
Starting sequence: PKN2 docking peptide (human); VSAVQKLDFSDTM
| Change | normalised enrichment score |
| --- | --- |
| WSAVQKLDFSDTM [V1W] | 1.67 |
| VSAVQKLIFSDTM [D8I] | 1.8 |
| VSAVQKLDFDDTM [S10D] | 0.99 |
| VSAVQKLYFSDTM [D8Y] | 0.41 |
| VSAVQKLDISDTM [F9I] | -0.528 |
| VSAVQKLDFSWTM [D11W] | 1.38 |
| VSMVQKLDFSDTM [A3M] | 0.135 |
| VSAVQKLDCSDTM [F9C] | 0.0652 |
| VSAVQKLDFEDTM [S10E] | 2.06 |
| VSFVQKLDFSDTM [A3F] | 0.314 |

Study 3 — technique: DHFR PCA, deep sequencing; sample: yeast; with: (+)-ABA 0.032 µM; baseline: wild-type fitted maximum; reading: higher = stronger binding
Target: ABI1, truncated, D143A, DHFR fusion (Arabidopsis thaliana)
Notes: methotrexate growth selection, single substitutions
Starting sequence: PYL1, truncated, DHFR fusion (Arabidopsis thaliana); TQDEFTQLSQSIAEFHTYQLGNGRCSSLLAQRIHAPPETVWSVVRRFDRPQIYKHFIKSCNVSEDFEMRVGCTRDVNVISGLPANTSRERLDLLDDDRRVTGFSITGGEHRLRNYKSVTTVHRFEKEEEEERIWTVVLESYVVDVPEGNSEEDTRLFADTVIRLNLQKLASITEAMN
| Change | relative binding score |
| --- | --- |
| G108Y | -9.81% |
| I162Y | 1.07% |
| V161A | 5.39% |
| R24C | 5.79% |
| R163S | 14.1% |
| N114S | 2.82% |

Other studies, line by line
| Substance | target | test | system | setting | how to read | endpoint | result |
| --- | --- | --- | --- | --- | --- | --- | --- |
| GGGAGUUCUACAGUCCGACGAUCAGCAACUCAAGGAUUGAGGACUGGUUUUACAAAUAUACCAAGCCGAUAUGGAACUAAUAACCGAAUUGGACAACCAAGACCAUGACCGACUCUAACUUAUUUUUAUAAGGAAUAUUGACUCAACAGAGGAUUGAGCAUCA | RING finger protein unkempt homolog, zinc fingers 1-6, SBP tag (UNK, Homo sapiens, UniProt Q9C0B0, residues 30-357) | RNA Bind-n-Seq | RNA, in vitro | 100 nM, RNA with constant flanks, ends assumed | baseline: input RNA pool, higher = stronger binding | bound/input enrichment | 0.236 ratio |
| PhoQ, residues 284 288 289 292 302 303 SSYNSA | PhoP, residues 12 14 15 18 19 NMSSL (Escherichia coli, UniProt P23836) | Sort-seq, measured: YFP reporter | E. coli | PhoQ-PhoP variant library, with: 10 µM Mg2+ | baseline: high Mg2+ state, higher = stronger signaling | fold induction | 9.05 |

A few entries again (study 2):
| Change | normalised enrichment score |
| --- | --- |
| VSAVQKLIFSDTM [D8I] | 1.8 |
| VSAVQKLDFDDTM [S10D] | 0.99 |
